Assay results collected from several papers.
Parts stem from different laboratories: compare values within a part only. Substitutions count along the parent as printed.

Series 1
Target: CCNF, cyclin fold, Cln2 fusion (human)
Technique: yeast growth competition, sequencing
Matrix: yeast
Setting: strong parent motif
Reference: not given
Reading: higher = stronger binding
Starting sequence: DOT1L docking peptide (human); SEAKRRIVFTITT
Substitution | normalised enrichment score
SEAARRIVFTITT [K4A] | 3.4
SEAKRRIAFTITT [V8A] | 1.28
AEAKRRIVFTITT [S1A] | 4.35
SEAKRRIVFTITA [T13A] | 4.11
SEAKRRIVFAITT [T10A] | 3.5
SEAKRRIVATITT [F9A] | 1

Series 2
Target: Hepatocyte nuclear factor 3-beta, forkhead domain (FOXA2, Homo sapiens, UniProt Q9Y261, residues 142-269)
Technique: protein-binding microarray
Form: double-stranded DNA, one strand shown
Matrix: in vitro
Concentration: not given
Setting: k-mer, scored over probes, only values ≥0.25
Reading: higher = stronger binding
Target sequence (chain): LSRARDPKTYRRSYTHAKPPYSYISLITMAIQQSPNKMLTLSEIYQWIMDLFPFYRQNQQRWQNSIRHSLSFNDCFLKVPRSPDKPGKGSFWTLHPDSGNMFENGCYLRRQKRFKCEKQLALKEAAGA
Sequence | E-score
ACATAATC | 0.315
CTTCTACA | 0.26
CAAGTGTA | 0.338
CACATTTA | 0.331
GTTTAGTA | 0.254
CTAATTAG | 0.28
AGCTGTAT | 0.278
AGTAGTAT | 0.263
CATATATG | 0.444
GTTACATA | 0.327
CAAATAGC | 0.291
AGTGTTGA | 0.262
AGCATATA | 0.257

Series 3
Target: RNA binding protein fox-1 homolog 2, RRM domain, GST-SBP tag (RBFOX2, Homo sapiens, UniProt O43251-10, residues 100-194)
Technique: RNA Bind-n-Seq
Form: RNA
Matrix: in vitro
Concentration: 365 nM
Setting: natural RNA segment, single round, ends assumed
Reference: no-protein control
Reading: higher = stronger binding
All sequences stand within: GGGAGUUCUACAGUCCGACGAUC … UGGAAUUCUCGGGUGCCAA
Construct (chain): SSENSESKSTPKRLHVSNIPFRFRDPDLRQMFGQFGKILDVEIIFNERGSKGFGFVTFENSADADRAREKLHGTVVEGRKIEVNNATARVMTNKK
Sequence | RBNS enrichment (R)
AGAGCCUUGAUUUUCCUGGUCAGGGUGAAGUUCCCUGUGUGUCUGUAAAAUAUGAACAAGGAUUCAUGAUUUGUAAAUGCUGUUUAUUUAUUGAUUGCUUCUUUCCAAAA | 1.14
CUACUUACAUUGUGUUCAUAUAUUUUGAAAAGACUUCUCUACUUUACCGUGGUCCUCCGUUGUGAGUGUUGCAGGGCUAUAGGAAGACAAAGCCUGGGGUACCCGCAUCU | 0.673
CAAGGCCAGCCUGGACGAAUUUGGGGUUGCUCUAUCCUGAGAGUUGUAACCUCAACUUCCAAAGUUUAUAUUUUCUUGAAAUGAUGGAUCUAUUGCUCAACAGUCCCUGU | 0.39
GUACUGUACCAGAAAACUGAGGGUCCCAGUUCUGGUCCCACCACCUUCCAAGUGUUUGCCAUGUGGCAGGCUUUGUUCUGGCUCAGUUUCCAAUUAGAAAGUGGAAAUCU | 0.32
AGGCUGCAGCCAAGGGGACUGAGCAGCAGGCACCCAAUGCCACCAGCUCGUCUCUUCCUAGCAAGCAAAGGGUUAAAGAAGCCACCACCUGGGUGUCAGUGGGAAGGAGA | 0.669
UUUCCUUGCAUACAAAUAAGCAUAUAAAAUGGCAACAAACUGCACAUGAUUUCACAAAUAUUAAAAUGUCUUUUAAAAAGUAUUGCCAAACAGUAAUGUUGAUUUCUAGU | 0.96
AUCGUUUGGAACCUGGUAUUUCUGUUGUGUUCUUGGCAGUGCAUAGGAACCCAGCCUCCUGUGUUUUGACCCUCCUGCAGGCACUGUGGGACUCGAGGGCAGCAGAUCCA | 0.629
UGCAAGUGAACUUGGGAGGGGGCACGGGCCUGUAGAUCAGGGAUAGCGCUGUUGAUCCCCUCUCUGUGGCUCCAACCCGUUGGGUCCCUUGCUGCAAACCCAUGAAGCUG | 0.434

Other studies, line by line
Substance | target | test | test system | setting | how to read | endpoint | result
PhoQ, residues 284 288 289 292 302 303 ASHLAV | PhoP, residues 12 14 15 18 19 TPWLV (Escherichia coli, UniProt P23836) | Sort-seq, refers to: YFP reporter | E. coli | PhoQ-PhoP variant library, with: 10 µM Mg2+ | reference: high Mg2+ state, higher = stronger signaling | fold induction | 1.43

Repeated from above (series 1):
Substitution | normalised enrichment score
SEAKRRIAFTITT [V8A] | 1.28
AEAKRRIVFTITT [S1A] | 4.35
SEAKRRIVFTITA [T13A] | 4.11
